Results of several laboratories.
Each numbered part is a random draw from the data of one study; scales do not carry over between parts.

Set 1 — method: protein binding microarray; molecule type: double-stranded DNA, one strand shown; sample: in vitro; concentration: not given; baseline: not given; reading: higher = stronger binding
Target: Histone acetyltransferase KAT6A, winged helix 2, GST fusion (KAT6A, Homo sapiens, UniProt Q92794, residues 85-181)
Notes: 8-mer, flanks averaged, mean of 2 arrays, mostly near background
Target sequence (chain): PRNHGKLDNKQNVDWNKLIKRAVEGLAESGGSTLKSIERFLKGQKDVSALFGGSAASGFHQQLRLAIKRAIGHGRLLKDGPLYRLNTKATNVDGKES
Oligonucleotide	E-score
CGTACGCC	-0.00291
CCCAAAGC	0.00906
TAGAGGCA	-0.164
TGAAGACA	0.0774
ACTTCTGA	-0.0689
AGAGCCAT	-0.114
AGAATAGA	-0.057
CCGGGGCC	0.148

Set 2 — method: RNA Bind-n-Seq; molecule type: RNA; sample: in vitro; concentration: 365 nM; baseline: no-protein control; reading: higher = stronger binding
Target: RNA binding protein fox-1 homolog 2, RRM domain, GST-SBP tag (RBFOX2, Homo sapiens, UniProt O43251-10, residues 100-194)
Notes: natural RNA segment, single round, ends assumed
Constant ends, left off below: GGGAGUUCUACAGUCCGACGAUC … UGGAAUUCUCGGGUGCCAA
Target sequence (chain): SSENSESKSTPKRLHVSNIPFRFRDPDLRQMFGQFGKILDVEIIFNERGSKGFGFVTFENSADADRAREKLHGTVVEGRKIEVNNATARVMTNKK
Oligonucleotide	RBNS enrichment (R)
CCAGACUGAGUCCUCUCCCCAAAUCAGGGCUCUAGACCCGAGCCCUCCAAACCUGGACUCUGGGACUUAGGCCCCCUUAAAUCUAGACUUCUCUUUAUAGGUUUCAGGUC	0.284
AGAUCACUGACUUCUCUUUAACUGUCCUGAGCUACAUCACGCCCACAAAUCUGUCUUUCAUACCACUCUAUCUGCCAUUCAUUCUUGUUAAAUGAGGCAUUGUUUUCUUU	0.779
UCCAGCCAACACACAGGACUGUAAGAGGACUCUGAGCUACGUGCCCUGUGAAGACCCCCAGGCUUUGUCAUAGGAGGUCGUUCAGCUUCCCCAAAGUCAGAGGUGAUUUG	0.457
AAGUGACUGGGUGUGCCAAAAAUGCCCAGGGUUCUGCCCUCAAUACUAUAUUUGAUGGGGCCAAGAGGGUCCAAACCCUGCUAACAUACCACUUUAUUCAACUCCUUUAC	0.423
AGCCUAGCUGGAAUAUUGAUGCCAUACUAUAUUUUGCAUGCUAUUUUCUUCCCUAGAGGCAUUGAGGGCAAUUGCACUUUGGCUCUCUCAAGAUGUGUCAUUUUCAGACA	4.77
CAUGAUAUAAAAAUAUAUGCUGAAUUACUUGUGAAGAAUGCAUUUAAAGCUAUUUUAAAUGUGUUUUUAUUUGUAAGACAUUACUUAUUAAGAAAUUGGUUAUUAUGCUU	0.379
GGCCUAAGAUUUUGAGUUAACAUCUCUUGAAGCCAAACUCCACCUUCUGUGCUUUUUGCUUGGGAUAAUGGAGUUUUUCUUUAGAAACAGUGCCAAGAAUGACAAGAUAU	0.25
UUCCAUGUGUUUUGCUUUUAUCCACUGGCAUUUUUAGCUCCUUGAAGACAUAUCAUGUGUGAGAUAACUUCCUUCACAUCUCCCAUGGUCCCUAGCAAAAUGCUAGGCCU	0.857
UACAGAUUUAAUACAGUUUAUUUUUAAAGAUAGAUCCUUUUAUAGGUGAGAAAAAAACAAUCUGGAAGAAAAAAACCACACAAAGACAUUGAUUCAGCCUGUUUGGCGUU	0.577

Set 3 — method: RNA Bind-n-Seq; molecule type: RNA; sample: in vitro; concentration: 100 nM; baseline: input RNA pool; reading: higher = stronger binding
Target: RING finger protein unkempt homolog, zinc fingers 1-6, SBP tag (UNK, Homo sapiens, UniProt Q9C0B0, residues 30-357)
Sequence of UniProt Q9C0B0 (30-357, looked up): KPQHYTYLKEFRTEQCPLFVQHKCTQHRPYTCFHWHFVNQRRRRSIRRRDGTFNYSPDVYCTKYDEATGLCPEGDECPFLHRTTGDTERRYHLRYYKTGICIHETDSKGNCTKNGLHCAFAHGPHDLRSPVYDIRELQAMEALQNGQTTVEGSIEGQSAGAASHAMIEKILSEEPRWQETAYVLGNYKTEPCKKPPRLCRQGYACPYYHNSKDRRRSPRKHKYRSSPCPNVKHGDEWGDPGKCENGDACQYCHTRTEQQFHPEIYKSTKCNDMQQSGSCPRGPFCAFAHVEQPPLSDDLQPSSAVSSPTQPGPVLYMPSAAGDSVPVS
Notes: RNA with constant flanks, vertebrate orthologous sites, ends assumed
Constant ends, left off below: GGGAGUUCUACAGUCCGACGAUC … CAACAGAGGAUUGAGCAUCA
Oligonucleotide	bound/input enrichment
UUGGGACCAGCUCUCUGAAUAGAAAUAGUAGUAAAAAAACCAAGCAAAAUGAUAUUUGUAUAGACAAAACAGAAGUUAAAUCAUGUAAAAUAAAUGCUGCCAGUGUUCCAGGCCCUAAAG	2.16 ratio
AAGAAAUGCUGGCUGCAAACCCUCAGGAUCGUCCAGAUGCUUUUGAACUAGAACUCCGAUUAGUACAAAUUGCGUUUAAAGACAGCAGCUGGGAAACGUGACACAUAUGUUGUUUGCCGA	1.51 ratio
AGAGGAACAGCAUAGGCUGUUUGAGCUUUGGGAAAAUGAGCUUUGCUUUUUAUAUUUAAAUAGGAUACUUUUAUAUGAUGGGUGCUCUGAGUGUGAAUGCAGCAGGCUGUCCAUUUCAGA	0.89 ratio
AUUUAAAAUGUAGUUAGUUAUAUUUAAUGACCUCAUUCCUAAGUUUCUUUUUCAUUAAUGUAGCUUUCAUUUCUGUUGUUGUUGUUUUAAUAAUAUGAUGAAAUAGAAAGUCUGUGCCAG	0.438 ratio
UGUCCUUUCUUACUGUCCCCAGCCGGGGCCGGGGACCGGUGUGUCACUGAGGACCUGCAUUAGAAACAUUUUUUAAAUUGUUGUACAGGAAGAGAUGUGUCUAAAACAGCAUCUCAAAGC	1.23 ratio
AUGUUUUCGCAUUUCCUGAACAUAAUGGAUAAUCAUUUUUUUUUUCUUAAAUUUGUUCCCAAGUGCUGUUAUAACAAUGUGGAUGGACCAUAAAUGUACUUGCUGCAUUCAUUCAUUUUU	0.282 ratio
GUGUUGGUACAGACAGCUCUGUACCAAUGCUCAUCGUCCCUCGUUCAUACCGACCAUACCUAGUUAUAGGAAUUUAAUAUUUUUUAAAGUUUUACAUUGCUGUAUAUUAAAAAAUCUGUU	0.498 ratio
CGUGCUUAUGCUCUUCUAUGAGAGAGAUGAAUUGGGGAGAACUGUCUCCAUUUUAUGGAUUAGUUUCUUUCUAAAUUAUGACCAAAAAUAUUUUGCUAUUUCUUUCUUUGUAUAUGGACA	0.362 ratio

Single results of other studies
Molecule	target	assay	system	setting	how to read	quantity	value
PhoQ, residues 284 288 289 292 302 303 AGGLSV	PhoP, residues 12 14 15 18 19 NHFRA (Escherichia coli, UniProt P23836)	Sort-seq, item: YFP reporter	E. coli	PhoQ-PhoP variant library, together with: 10 µM Mg2+	baseline: high Mg2+ state, higher = stronger signaling	fold induction	0.977

For quick reference, copied from above (set 2):
Oligonucleotide	RBNS enrichment (R)
UACAGAUUUAAUACAGUUUAUUUUUAAAGAUAGAUCCUUUUAUAGGUGAGAAAAAAACAAUCUGGAAGAAAAAAACCACACAAAGACAUUGAUUCAGCCUGUUUGGCGUU	0.577
AGCCUAGCUGGAAUAUUGAUGCCAUACUAUAUUUUGCAUGCUAUUUUCUUCCCUAGAGGCAUUGAGGGCAAUUGCACUUUGGCUCUCUCAAGAUGUGUCAUUUUCAGACA	4.77
AGAUCACUGACUUCUCUUUAACUGUCCUGAGCUACAUCACGCCCACAAAUCUGUCUUUCAUACCACUCUAUCUGCCAUUCAUUCUUGUUAAAUGAGGCAUUGUUUUCUUU	0.779
UUCCAUGUGUUUUGCUUUUAUCCACUGGCAUUUUUAGCUCCUUGAAGACAUAUCAUGUGUGAGAUAACUUCCUUCACAUCUCCCAUGGUCCCUAGCAAAAUGCUAGGCCU	0.857
